Measured values from different studies.
Each line is one published result; not all experiments were run side by side. Values joined by “and” are separate records of one study, mostly repeats; a detail may differ. ± gives the spread as reported.
Urease: Urease (Canavalia ensiformis, UniProt P07374)
Sequence of UniProt P07374 (whole entry, looked up): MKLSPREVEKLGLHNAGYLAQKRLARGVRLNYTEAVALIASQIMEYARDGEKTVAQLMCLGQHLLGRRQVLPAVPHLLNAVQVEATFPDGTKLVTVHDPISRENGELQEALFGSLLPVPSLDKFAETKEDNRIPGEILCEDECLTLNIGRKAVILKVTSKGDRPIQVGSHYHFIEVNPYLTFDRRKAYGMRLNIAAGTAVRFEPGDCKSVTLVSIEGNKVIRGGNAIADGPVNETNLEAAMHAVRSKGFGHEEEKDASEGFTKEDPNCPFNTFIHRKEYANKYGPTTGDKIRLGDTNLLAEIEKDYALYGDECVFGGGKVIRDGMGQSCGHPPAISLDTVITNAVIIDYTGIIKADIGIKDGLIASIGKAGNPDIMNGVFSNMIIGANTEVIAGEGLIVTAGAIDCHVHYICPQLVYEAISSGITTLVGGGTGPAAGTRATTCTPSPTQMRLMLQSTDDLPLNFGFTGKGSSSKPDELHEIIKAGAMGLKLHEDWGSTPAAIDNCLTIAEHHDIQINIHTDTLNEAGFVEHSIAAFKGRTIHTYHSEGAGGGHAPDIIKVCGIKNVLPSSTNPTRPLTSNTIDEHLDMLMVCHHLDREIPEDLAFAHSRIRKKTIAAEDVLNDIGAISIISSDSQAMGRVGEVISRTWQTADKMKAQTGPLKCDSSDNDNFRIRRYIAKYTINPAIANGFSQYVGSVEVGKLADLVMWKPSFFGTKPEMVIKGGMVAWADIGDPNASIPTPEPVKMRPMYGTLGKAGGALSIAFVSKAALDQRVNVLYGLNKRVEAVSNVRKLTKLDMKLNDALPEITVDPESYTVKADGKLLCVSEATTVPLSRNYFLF
Cyp2b1: Cytochrome P450 2B1 (Cyp2b1, Rattus norvegicus, UniProt P00176)
Sequence of UniProt P00176 (whole entry, looked up): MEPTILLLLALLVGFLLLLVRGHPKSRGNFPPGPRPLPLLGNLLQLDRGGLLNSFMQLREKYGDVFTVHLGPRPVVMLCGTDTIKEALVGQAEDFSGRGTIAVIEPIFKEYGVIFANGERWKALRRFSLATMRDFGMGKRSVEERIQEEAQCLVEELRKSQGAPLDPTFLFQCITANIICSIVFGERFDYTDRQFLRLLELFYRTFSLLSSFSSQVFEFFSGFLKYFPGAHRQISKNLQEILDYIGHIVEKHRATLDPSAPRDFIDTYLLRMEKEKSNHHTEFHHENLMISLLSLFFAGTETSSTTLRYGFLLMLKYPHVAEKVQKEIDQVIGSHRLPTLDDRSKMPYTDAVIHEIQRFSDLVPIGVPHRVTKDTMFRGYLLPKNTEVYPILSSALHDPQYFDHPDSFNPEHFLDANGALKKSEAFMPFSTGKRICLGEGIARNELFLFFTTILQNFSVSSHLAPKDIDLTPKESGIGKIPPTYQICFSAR
Kir1 channel protein: Kir1 channel protein (Aedes aegypti, UniProt L0EQS9)
STS: Steryl-sulfatase (STS, Homo sapiens, UniProt P08842)
Sequence of UniProt P08842 (whole entry, looked up): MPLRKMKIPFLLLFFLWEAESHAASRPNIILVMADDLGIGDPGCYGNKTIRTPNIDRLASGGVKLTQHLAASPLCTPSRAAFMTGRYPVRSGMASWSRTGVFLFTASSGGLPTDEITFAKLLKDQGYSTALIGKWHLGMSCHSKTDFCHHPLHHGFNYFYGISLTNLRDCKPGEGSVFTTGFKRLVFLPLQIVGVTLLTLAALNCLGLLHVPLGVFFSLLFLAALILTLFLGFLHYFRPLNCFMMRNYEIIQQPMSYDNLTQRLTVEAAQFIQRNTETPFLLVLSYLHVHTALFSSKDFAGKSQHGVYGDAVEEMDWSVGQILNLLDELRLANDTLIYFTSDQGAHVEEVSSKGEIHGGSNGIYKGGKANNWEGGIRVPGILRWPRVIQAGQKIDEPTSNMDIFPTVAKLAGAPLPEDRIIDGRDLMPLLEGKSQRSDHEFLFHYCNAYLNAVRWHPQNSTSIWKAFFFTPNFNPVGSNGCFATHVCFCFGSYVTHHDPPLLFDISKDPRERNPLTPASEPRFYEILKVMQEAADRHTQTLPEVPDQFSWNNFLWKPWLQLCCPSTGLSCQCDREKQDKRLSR
MAL12: Alpha-glucosidase MAL12 (MAL12, Saccharomyces cerevisiae S288c, UniProt P53341)
Sequence of UniProt P53341 (whole entry, looked up): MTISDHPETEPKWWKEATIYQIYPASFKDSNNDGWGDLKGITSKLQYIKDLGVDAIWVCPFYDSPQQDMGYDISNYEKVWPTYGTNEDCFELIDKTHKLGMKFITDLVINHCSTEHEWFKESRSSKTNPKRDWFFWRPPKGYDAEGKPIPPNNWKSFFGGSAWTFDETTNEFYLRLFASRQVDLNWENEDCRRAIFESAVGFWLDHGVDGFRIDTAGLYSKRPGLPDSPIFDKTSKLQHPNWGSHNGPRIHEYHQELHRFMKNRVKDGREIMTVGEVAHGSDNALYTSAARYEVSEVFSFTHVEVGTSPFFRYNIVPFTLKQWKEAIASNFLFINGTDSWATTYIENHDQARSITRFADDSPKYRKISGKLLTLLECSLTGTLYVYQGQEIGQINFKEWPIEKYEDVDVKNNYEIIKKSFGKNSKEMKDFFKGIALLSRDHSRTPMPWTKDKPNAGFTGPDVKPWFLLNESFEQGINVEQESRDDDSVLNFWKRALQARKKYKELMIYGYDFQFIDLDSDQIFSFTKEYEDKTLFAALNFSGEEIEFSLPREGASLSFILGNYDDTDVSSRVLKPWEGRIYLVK
Tubulin alpha-1B chain/TUBB2B: Tubulin alpha-1B chain/TUBB2B (Bos taurus, UniProt P81947+Q6B856)
Sequence of UniProt Q6B856 (whole entry, looked up): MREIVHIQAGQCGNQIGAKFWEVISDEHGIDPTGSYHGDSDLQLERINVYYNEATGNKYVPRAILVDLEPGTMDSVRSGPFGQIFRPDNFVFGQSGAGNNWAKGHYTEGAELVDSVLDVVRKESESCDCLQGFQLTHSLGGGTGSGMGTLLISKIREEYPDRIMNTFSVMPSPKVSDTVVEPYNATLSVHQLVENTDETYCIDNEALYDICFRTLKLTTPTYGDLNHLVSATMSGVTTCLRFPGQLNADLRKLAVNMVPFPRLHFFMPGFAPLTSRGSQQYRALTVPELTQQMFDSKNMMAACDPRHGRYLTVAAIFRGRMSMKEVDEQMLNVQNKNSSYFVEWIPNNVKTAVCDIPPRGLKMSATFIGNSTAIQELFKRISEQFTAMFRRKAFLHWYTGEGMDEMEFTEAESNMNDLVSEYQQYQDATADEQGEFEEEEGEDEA
Sequence of UniProt P81947 (whole entry, looked up): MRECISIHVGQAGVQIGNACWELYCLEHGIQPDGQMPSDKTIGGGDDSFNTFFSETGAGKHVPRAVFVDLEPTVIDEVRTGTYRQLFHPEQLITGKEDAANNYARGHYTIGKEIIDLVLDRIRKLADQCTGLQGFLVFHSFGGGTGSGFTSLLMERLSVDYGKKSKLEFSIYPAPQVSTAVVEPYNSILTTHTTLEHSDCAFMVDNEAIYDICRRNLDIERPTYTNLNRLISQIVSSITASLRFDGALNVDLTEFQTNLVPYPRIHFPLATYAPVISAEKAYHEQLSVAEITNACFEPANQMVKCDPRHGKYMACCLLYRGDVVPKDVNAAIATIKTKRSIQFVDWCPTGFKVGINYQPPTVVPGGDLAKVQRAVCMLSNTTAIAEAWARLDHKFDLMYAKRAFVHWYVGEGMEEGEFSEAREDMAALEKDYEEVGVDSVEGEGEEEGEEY
Inward rectifier potassium channel 4: Inward rectifier potassium channel 4 (Homo sapiens, UniProt P48050)
Sequence of UniProt P48050 (whole entry, looked up): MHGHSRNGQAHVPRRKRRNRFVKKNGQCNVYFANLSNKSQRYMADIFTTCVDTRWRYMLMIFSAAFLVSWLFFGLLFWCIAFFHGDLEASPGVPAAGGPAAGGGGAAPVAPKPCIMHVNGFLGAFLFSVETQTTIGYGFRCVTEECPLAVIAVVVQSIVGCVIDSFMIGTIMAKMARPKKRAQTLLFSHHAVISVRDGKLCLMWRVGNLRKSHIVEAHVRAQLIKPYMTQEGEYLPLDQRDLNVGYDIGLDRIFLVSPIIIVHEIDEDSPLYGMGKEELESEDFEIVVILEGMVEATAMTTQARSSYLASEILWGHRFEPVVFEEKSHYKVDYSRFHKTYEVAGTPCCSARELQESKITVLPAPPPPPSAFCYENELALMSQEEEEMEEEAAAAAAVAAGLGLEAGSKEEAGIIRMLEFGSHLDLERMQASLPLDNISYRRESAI
KCNJ13 M125R: Inward rectifier potassium channel 13 (KCNJ13, Homo sapiens, UniProt O60928, M125R)
Sequence of UniProt O60928 (whole entry, unmodified, looked up): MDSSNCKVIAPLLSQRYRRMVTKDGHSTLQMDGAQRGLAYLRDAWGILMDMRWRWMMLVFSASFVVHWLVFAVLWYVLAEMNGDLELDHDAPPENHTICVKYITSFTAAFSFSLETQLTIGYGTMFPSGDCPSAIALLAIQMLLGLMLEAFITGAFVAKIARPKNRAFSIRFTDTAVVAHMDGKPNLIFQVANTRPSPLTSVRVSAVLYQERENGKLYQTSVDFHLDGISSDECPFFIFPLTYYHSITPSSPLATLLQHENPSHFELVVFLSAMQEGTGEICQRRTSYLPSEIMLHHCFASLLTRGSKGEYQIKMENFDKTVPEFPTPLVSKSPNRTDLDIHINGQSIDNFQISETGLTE
Sequence of UniProt P05164 (whole entry, looked up): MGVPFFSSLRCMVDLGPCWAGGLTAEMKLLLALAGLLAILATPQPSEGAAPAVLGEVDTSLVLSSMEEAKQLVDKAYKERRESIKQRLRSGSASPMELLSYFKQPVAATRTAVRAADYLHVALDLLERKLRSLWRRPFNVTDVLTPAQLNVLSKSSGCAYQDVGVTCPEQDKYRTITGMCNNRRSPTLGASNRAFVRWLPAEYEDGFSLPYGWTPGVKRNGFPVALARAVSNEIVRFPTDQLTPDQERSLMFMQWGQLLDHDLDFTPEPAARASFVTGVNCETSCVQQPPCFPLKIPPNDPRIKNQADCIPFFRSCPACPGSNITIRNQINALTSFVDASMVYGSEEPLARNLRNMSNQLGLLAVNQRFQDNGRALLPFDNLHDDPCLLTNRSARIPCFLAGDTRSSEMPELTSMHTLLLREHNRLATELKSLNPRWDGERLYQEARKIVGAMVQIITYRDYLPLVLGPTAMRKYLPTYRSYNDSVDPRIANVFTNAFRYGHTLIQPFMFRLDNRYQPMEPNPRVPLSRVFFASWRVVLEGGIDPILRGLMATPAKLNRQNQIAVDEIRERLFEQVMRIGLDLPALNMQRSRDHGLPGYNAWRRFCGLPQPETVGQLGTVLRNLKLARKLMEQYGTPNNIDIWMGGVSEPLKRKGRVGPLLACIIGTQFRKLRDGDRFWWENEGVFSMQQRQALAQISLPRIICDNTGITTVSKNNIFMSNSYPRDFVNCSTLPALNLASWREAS

Substance | target | assay | test system | conditions | IC50
COc1cc(/C=N/NC(=O)COc2cc(C)cc3oc(=O)cc(C)c23)ccc1OCc1cn(Cc2ccc(Br)cc2)nn1 | Urease | enzyme activity, inhibitor | – | – | 11.2 ± 0.5 µM
O=C(O)CCNC(=S)NCCCC[C@H](NS(=O)(=O)c1cccc(F)c1)C(=O)N[C@@H](Cc1c[nH]c2ccccc12)C(=O)NC1CCC1 | SIRT5 (Homo sapiens, UniProt Q9NXA8) | desuccinylase activity, inhibitor | – | 30 min, room temperature, added: succinyl peptide substrate, 250 µM NAD+ | 0.102 ± 0.008 µM
COC(=O)C1=C(C)NC(C)=C(C(=O)OC)C1c1ccccc1[N+](=O)[O-] | CACNA1H (Homo sapiens, UniProt O95180) | calcium current, blocker, automated patch clamp | – | tonic block, holding -90 mV | > 3 µM
CC12CC3CC(C)(C1)CC(N)(C3)C2 | Glutamate receptor 2, with TARP gamma-2 (Gria2, Rattus norvegicus, UniProt P19491, Q607E) | ion current, inhibitor, whole-cell patch clamp | – | Q607E with gamma-2, -100 mV, added: glutamate 10 mM | 5.7 ± 1 µM
O=c1cc(-c2ccccc2)oc2ccc(O)cc12 | Cyp2b1 | enzyme activity, inhibitor | supersomes | added: pentoxyresorufin 5 µM | > 50 µM
O=[N+]([O-])c1ccc(N2CCN(S(=O)(=O)c3ccc(F)cc3)CC2)cc1NCc1nccs1 | Kir1 channel protein | ion flux, inhibitor, fluorescence | – | – | 0.496 µM
CC(C)N(C)c1nc2cc(C(=O)O)ccc2nc1-c1ccc(F)cc1 | PASK (Homo sapiens, UniProt Q96RG2) | phosphorylation in cells, inhibitor, ELISA | – | – | ~1 µM
NC/C(=C\F)COc1cccc(Cn2c(=S)[nH]c(=O)c3[nH]cnc32)c1 | Myeloperoxidase (MPO, Homo sapiens, UniProt P05164) | H2O2 consumption, H2O2 electrode | – | enzyme 10 nM, added: H2O2 50 µM, taurine 5 mM | 0.08 µM
Fc1ccc(NC(=S)N2CCc3ccccc3C2)c(F)c1 | Urease | enzyme activity, inhibitor, absorbance | – | – | 28.7 µM
Cc1nnc(S(=O)(=O)CC(=O)C23CC4CC(CC(C4)C2)C3)s1 | Cytochrome P450 3A4 (CYP3A4, Homo sapiens, UniProt P08684) | enzyme activity, inhibitor, fluorescence | – | – | 6.3 µM
NC(=O)[C@@H]1CC[C@@H]2CN1C(=O)N2OS(=O)(=O)O | Penicillin-binding protein 1 (Staphylococcus aureus, UniProt Q2FZ94) | binding, Bocillin FL competition | Staphylococcus aureus, ATCC 29213, membranes | added: Bocillin FL 100 µM | > 965 µM
C#CCOc1cccc(-c2cc(=O)c3ccccc3o2)c1 | Cyp2b1 | enzyme activity, inhibitor | supersomes | added: pentoxyresorufin 5 µM | > 10 µM
C[C@]12CC[C@@H]3c4cc(OC(F)F)c(OS(N)(=O)=O)cc4CC[C@H]3[C@@H]1CC[C@@H]2OS(N)(=O)=O | STS | enzyme activity, inhibitor | – | lysate | 0.044 µM
N#CC1=C(N)Oc2c(c(=O)[nH]c3ccccc23)C1c1cccc(OCc2cn(Cc3ccccc3)nn2)c1 (stereo not drawn) | MAL12 | enzyme activity | – | – | 1.19 ± 0.05 µM
O=C1C[C@@H](c2ccc(O)cc2)Oc2cc(O)cc(O)c21 | SLCO2B1 (Homo sapiens, UniProt O94956) | transporter uptake, inhibitor, radiometric | MDCK-II | 3 min, pH 6 | 20 µM
O=c1oc2c(O)c(O)cc3c(=O)oc4c(O)c(O)cc1c4c23 | ALKBH2 (Homo sapiens, UniProt Q6NS38) | 3-methylcytosine repair, inhibitor, HPLC | – | 1 h, 37 °C, added: ssDNA 16mer 5 µM | 25.5 µM
C[C@H]1O[C@H](O[C@H]2[C@H](O)[C@@H](O)[C@@H](O[C@H]3[C@H](O)[C@@H](O)C(O)O[C@@H]3CO)O[C@@H]2CO)[C@H](O)[C@@H](O)[C@@H]1N[C@H]1C=C(CO)[C@@H](O)[C@H](O)[C@H]1O (stereo partly drawn) | maltase, rat intestine | enzyme activity, inhibitor | – | 20 min, pH 6.8, 37 °C, added: pNPG 0.50 mM | 162 ± 6.34 µg/mL
VGNVYVKF | Mamu-B*052:01 (Macaca mulatta) | binding, competitor | peptide | added: radiolabelled probe peptide | 0.0074 µM
S=C(NC1CCCCC1)N1CCc2ccccc2C1 | Urease | enzyme activity, inhibitor, absorbance | – | – | 24.5 µM
O=C(O)c1cc(=O)c2c(OCC(O)COc3cccc4oc(C(=O)O)cc(=O)c34)cccc2o1 | hyaluronidase | enzyme activity, inhibitor, colorimetric p-DAB | – | pH 4.0, 37 °C, added: potassium hyaluronate | 157 µM
Nc1nc(-c2cccc3ccccc23)c(Cl)s1 | Scn2a (Mus musculus, UniProt B1AWN6) | sodium current, inhibitor | N1E-115 | 0.1 Hz stimulation | ~118 µM and 118 µM
O=C(NC1CC1)n1ccc2c3c(=O)cc(-c4ccccc4)[nH]c3ccc21 | Tubulin alpha-1B chain/TUBB2B | tubulin polymerization, turbidimetry | – | 20 min | 2.2 to 2.4 µM
Oc1cc(O)c2c(c1)O[C@H](c1ccc(O)c(O)c1)[C@H](O)[C@H]2c1c(O)cc(O)c2c1O[C@H](c1ccc(O)c(O)c1)[C@H](O)[C@H]2c1c(O)cc(O)c2c1O[C@H](c1ccc(O)c(O)c1)[C@H](O)C2 | alpha-glucosidase (Bacillus stearothermophilus) | inhibitor | – | 20 min, pH 6.8, 60 °C, added: pNPG substrate | 3.4 ± 1.1 µM
O=[N+]([O-])c1ccc(N2CCN(S(=O)(=O)c3ccc(F)cc3)CC2)cc1NCc1ncco1 | Kir1 channel protein | ion flux, inhibitor, fluorescence | – | – | 0.177 µM
Cc1ccc(OCC(O)Cn2c(=N)n(C)c3ccccc32)cc1 (stereo not drawn) | Inward rectifier potassium channel 4 | ion flux, inhibitor, fluorescence | – | – | 16.5 µM
CCc1oc2ccccc2c1C(=O)c1cc(Br)c(OC)c(Br)c1 | SLC22A12 (Homo sapiens, UniProt Q96S37) | – | human cells | – | 1.2 µM
Cn1c(=O)c2c(nc(C=Cc3cccc(Cl)c3)n2C)n(C)c1=O | KCNK18 (Homo sapiens, UniProt Q7Z418) | ion flux, inhibitor | – | – | 22 µM

Substance | target | assay | test system | conditions | IC50
Cc1cccc(Cc2nn(C(C)(C)C)c3ncnc(N)c23)c1 | EPHB1 (Homo sapiens, UniProt P54762, T697G) | phosphorylation in cells, inhibitor, western blot | – | – | 0.005 µM
NS(=O)(=O)Oc1ccc(CC(c2ccc(Cl)cc2)n2cncn2)cc1Br (racemic) | STS | enzyme activity, inhibitor | JEG-3 | 1 h, added: [3H]oestrone sulfate | 0.18 ± 0.026 µM
Cn1cc(CNCC2CCN(c3ncc(C(=O)NO)cn3)CC2)c2ccccc21 | HDAC (Lucilia cuprina egg nuclear extract) | enzyme activity, inhibitor, fluorometric | – | – | 0.009 µM
N=c1n(Cc2ccccc2)c2ccccc2n1CC(O)COc1ccc(Cl)cc1Cl (stereo not drawn) | Inward rectifier potassium channel 4 | ion flux, inhibitor, fluorescence | – | – | 5.33 µM
CN(C)c1ccc(/N=N/c2ccc(NC(=S)N3CCc4ccccc4C3)cc2)cc1 | Urease | enzyme activity, inhibitor, absorbance | – | – | 32.7 µM
CN1CCN(CCC(=O)Nc2ccc3c(c2)Sc2cccc(-c4cc(=O)cc(N5CCOCC5)o4)c2S3)CC1 | PI4K, human | enzyme activity, inhibitor | – | – | > 10 µM
Nc1ncnc2c1ncn2[C@@H]1O[C@H](COP(=O)(O)OP(=O)(O)OC[C@H]2OC(O)[C@H](O)[C@@H]2O)[C@@H](O)[C@H]1O (stereo partly drawn) | SARM1 (Homo sapiens, UniProt Q6SZW1) | enzyme activity, inhibitor, fluorescence | – | with preincubation | 129 µM
CO[C@H]1/C=C/O[C@@]2(C)Oc3c(C)c(O)c4c(O)c(c(/C=N/N5CCN(C)CC5)c(O)c4c3C2=O)NC(=O)/C(C)=C\C=C\[C@H](C)[C@H](O)[C@@H](C)[C@@H](O)[C@@H](C)[C@H](OC(C)=O)[C@@H]1C | Solute carrier organic anion transporter family member 1B2 (Slco1b2, Mus musculus, UniProt Q9JJL3) | transport, inhibitor | HEK293 overexpressing | added: sorafenib glucuronide 10 µM | ~1 µM
COc1ccc(C(/C=C/CN2CCC[C@@H]2[C@H](O)C(=O)O)(c2ccc(OC)cc2)c2ccc(OC)cc2)cc1 | SLC6A1 (Homo sapiens, UniProt P30531) | [3H]GABA uptake, inhibitor | HEK293T | 120 min preincubation, estimated, added: [3H]GABA 30 nM | 212 µM
COc1cc(/C=N/NC(=O)COc2cc(C)cc3oc(=O)cc(C)c23)ccc1OCc1cn(Cc2ccc(Cl)cc2)nn1 | Urease | enzyme activity, inhibitor | – | – | 13.2 ± 2.06 µM
O=C(/C=C/c1cccc(S(=O)(=O)Nc2ccccc2)c1)NO | HDAC (Lucilia cuprina egg nuclear extract) | enzyme activity, inhibitor, fluorometric | – | – | < 0.3 µM
Cc1nccn1CC(=O)c1ccc(O)c(O)c1 | Alkaline phosphatase, placental type (Homo sapiens, UniProt P05187) | enzyme activity, inhibitor, luminescence, CDP-star substrate | – | different enzyme concentrations | 14.3 µM
Cc1ccc2nc(C3CCC3)n(-c3ccc4[nH]ncc4c3)c2n1 | GRIA1/CACNG8 (Homo sapiens, UniProt P42261+Q8WXS5) | calcium influx, antagonist, FLIPR | HEK293 expressing GluA1o | added: glutamate 100 µM | 0.00126 µM
CN(C)c1ccc(O)cn1 | PTGS1 (Ovis aries, UniProt P05979) | enzyme activity, inhibitor | – | pH 8 | 22 µM
C[C@@H](CNCc1ccccc1)N1C[C@H](CCCNC(=N)N)N(CCc2cccc(F)c2)C1=S | adrenergic α1A, α1B and α2A receptors | binding, radioligand displacement | – | – | > 1 µM
N#Cc1cc(F)cc(OCC(O)Cn2c(=N)n(Cc3ccccc3)c3ccccc32)c1 (stereo not drawn) | Inward rectifier potassium channel 4 | ion flux, inhibitor, fluorescence | – | – | 7.15 µM
Cn1ncc(Nc2ccc3c(c2)CCN(CCCCCNC(=O)COc2cccc4c2C(=O)N(C2CCC(=O)NC2=O)C4=O)C3)c(Cl)c1=O (stereo not drawn) | Chromatin remodeling regulator CECR2, bromodomain (CECR2, Homo sapiens, UniProt Q9BXF3) | binding, AlphaScreen | – | bromodomain, added: H4 acetylated peptide, 100 nM | 0.053 µM
Oc1ccc(C2CNCCc3c2cc(O)c(O)c3Cl)cc1 (stereo not drawn) | Carbamate kinase (Giardia intestinalis, UniProt A8BB85) | enzyme activity, ATP luminescence | – | – | 16.3 µM
CC[C@H](C)c1nc2cc(Nc3ccnc4ccc(S(=O)(=O)C(C)C)cc34)ccc2s1 | RIPK3 (Homo sapiens, UniProt Q9Y572) | enzyme activity, inhibitor, ADP detection | – | – | 0.011 µM
O=C(Nc1cc(F)c(F)c(F)c1Br)c1cc(S(=O)(=O)N2CCOCC2)c(Cl)cc1Cl | LPAR1 (Homo sapiens, UniProt Q92633) | Ca2+ mobilization, antagonist | RH7777 | added: LPA at EC50 | > 100 µM
O=c1cc(-c2cccc3ccccc23)[nH][nH]1 | ALPL (Homo sapiens, UniProt P05186) | enzyme activity, inhibitor, luminescence | – | added: 300 µM CDP-star, 100 mM DEA | 12.2 ± 0.383 µM
N=c1n(Cc2ccccc2)c2ccccc2n1CC(O)CN1CCOCC1 (stereo not drawn) | KCNJ13 M125R | ion flux, inhibitor | – | – | > 100 µM
Nc1nc2c(ncn2[C@@H]2O[C@H](COP(=O)(O)OP(=O)(O)O)[C@@H](O)[C@H]2O)c(=O)[nH]1 | Tubulin alpha-1B chain/TUBB2B | assembly, inhibitor, turbidimetry | – | bovine, 2 mM MgCl2, added: paclitaxel 30 µM | 57 ± 4 µM
COc1cccc(Cn2c(=N)n(CC(O)COc3ccc(C)cc3)c3ccccc32)c1 (stereo not drawn) | Inward rectifier potassium channel 4 | ion flux, inhibitor, fluorescence | – | – | 2.8 µM
[Co+2] | Trpv1 (Rattus norvegicus, UniProt O35433) | calcium uptake | HaCaT expressing rat TRPV1 | approximate | ~15 µM
Cc1ccccc1OCC(O)Cn1c(=N)n(Cc2ccccc2)c2ccccc21 (stereo not drawn) | KCNJ13 M125R | ion flux, inhibitor | – | – | 4.1 µM
N#CC1=C(N)Oc2c(c(=O)[nH]c3ccccc23)C1c1cccc(OCc2cn(Cc3ccc(Br)cc3)nn2)c1 (stereo not drawn) | MAL12 | enzyme activity | – | – | 9.19 ± 0.17 µM
